{"data": "Measurements gathered from unrelated publications", "note": "A part holds a random share of what one study measured. Positions count from the first letter of the parent shown."}
{"data": "Study 1", "target": "RNA binding protein fox-1 homolog 2, RRM domain, GST-SBP tag (RBFOX2, Homo sapiens, UniProt O43251-10, residues 100-194)", "method": "RNA Bind-n-Seq", "molecule type": "RNA", "sample": "in vitro", "concentration": "365 nM", "setting": "natural RNA segment, single round, ends assumed", "reference": "no-protein control", "direction": "higher = stronger binding", "all sequences stand within": "GGGAGUUCUACAGUCCGACGAUC … UGGAAUUCUCGGGUGCCAA", "Residues (chain)": "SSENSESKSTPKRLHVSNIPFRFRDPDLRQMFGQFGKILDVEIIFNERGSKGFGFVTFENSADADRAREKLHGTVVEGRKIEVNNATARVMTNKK"}
{"Strand": "CCCCAUUCCACCCUCUCUGGGACUACAUAUGCAUCAAGAGUAGGACAGGAUGCUGCCUUGCCUGGUUUUGUUCUGAGCUGGUGAAUCCUUUGCUCUUUCAGCUAUUCUAG", "RBNS enrichment (R)": 0.687}
{"Strand": "UUCUUAUGUAUUAUGAAAGUGAUAAGAAGACAAAUUAAGUGGGUAUAUUUUAUAAAAUAAAUUCAUGAAGAGAUUUGUGUUCUUCAGUUUAUUGUCACUACAGUAUUGAA", "RBNS enrichment (R)": 0.671}
{"Strand": "AGAGCAUCGAGGAUAGUAGCUUAAGGUUGCUGAGCUGGAAGCUGUGGGGGAAGAAGUGGAAACUAUGUCCAGUGAACUUUUCCAGUAAAUGAAGCAAGCACUAAAGUACU", "RBNS enrichment (R)": 0.549}
{"Strand": "GUUAAUGGGAGGAAGGAAAGAGACCCUGCCUAGGGAAGGUUGGCUUACAGCCACCCUUGCAAGAAGUGCUGGUAUAGGGUCAGCUGGGGAGAAGAGCCCUGGUCAGUGGC", "RBNS enrichment (R)": 0.539}
{"Strand": "AGCAACGCAAUCCACUCCAUGCUGACUGGCACCAGACAGUGAGCGGCUCAGGAGUGAUGGAAAGCGGGGCCACCACGCCAGGAAGCAACUCCCUCUGCAGCGCUCGUCUG", "RBNS enrichment (R)": 0.281}
{"Strand": "UGAAGAUAUGUGUGUGUGUAUAUUCAACUUUGAUGGCUUCCGGAUCUGUAAGAUUGUAUGCUGUAUAUACCGUUCUAUUGAGAAACAUGUACACAUGUCUGUCUACUGUG", "RBNS enrichment (R)": 5.98}
{"Strand": "AGCAAGAAACAGUUUCUUGCUUGGAAGCCAGGUACAGGAGAGGCAGCAUGCUUGGGCUGACCCAGCAUCUCCCAGCAAGACCUCAUCUGUGGAGCUGCCACAGAGAAGUU", "RBNS enrichment (R)": 2.17}
{"Strand": "GAUUGCUCCUGCCUCCCUGCACAAGUCUAUCCGGUGCGGUAUCUAUCAGGUGUGAACUUGGCUGCUAGCGUAUGAACCCAGAUGUGACGCAGAGCCUCUGCAGCGAUCUU", "RBNS enrichment (R)": 0.306}
{"Strand": "GGGAAAAGCAGCGUUCCCUCUCCUUAAGCCACAGGCAGAUUGUGUAAAACAGGAACAGCAGCGGCUGUUUCAGCUGUGGGAAACGAGCUUUGCUUUUAUAUAUAUAUAUA", "RBNS enrichment (R)": 0.457}
{"data": "Study 2", "target": "Fragile X messenger ribonucleoprotein 1, C-terminal low-complexity region (Fmr1, Mus musculus, UniProt P35922)", "method": "RNA Bind-n-Seq", "molecule type": "RNA", "sample": "in vitro", "concentration": "200 nM", "setting": "whole 134-nt RNA, ends assumed", "together with": "150 mM KCl", "reference": "input library", "direction": "higher = stronger binding", "all sequences stand within": "GGGAGUUCUACAGUCCGACGAUC … UGGAAUUCUCGGGUGUCAAGG"}
{"Strand": "UGCACACCGCCUUGCACAUAGCAGAGGCUCCGGGCUCACUCCUUCCUGGUGGGAAAGGAAGAUGCCUGUCCUCUCCGUGGAAGACCCUGG", "log2 enrichment": -1.15}
{"Strand": "CUGUGCUACACAUCGUAUGUACCGAAUCGGGUUUUUUUGGGGUUUUUUUGGGUUUUUUUGGGAAAGUAUUAUGUUACGCCGUUCGGAUCU", "log2 enrichment": -0.0856}
{"Strand": "AGUCCUGUGCUACACAUCGUAUGUACCGAAUCGGGGUUUUUGGUUUUUGGUUUUUGGAAAGUAUUAUGUUACGCCGUUCGGAUCUGCACU", "log2 enrichment": -0.684}
{"Strand": "CAAGUCCUGUGCUACACAUCGUAUGUACCGAAUCGGAGGUUUUUUUGGUUUUUGGAAAGUAUUAUGUUACGCCGUUCGGAUCUGCACUUC", "log2 enrichment": -0.916}
{"Strand": "UCAAGUCCUGUGCUACACAUCGUAUGUACCGAAUCGGGGAGGGGUGGGGAGGGGAAAGUAUUAUGUUACGCCGUUCGGAUCUGCACUUCC", "log2 enrichment": 1.31}
{"Strand": "CAAGUCCUGUGCUACACAUCGUAUGUACCGAAUCGGGCCCCGGGCCCCGGCCCCGGAAAGUAUUAUGUUACGCCGUUCGGAUCUGCACUU", "log2 enrichment": -0.507}
{"Strand": "UAACUUUAGAGGAGGAUCUGAUGGAUAUGGCAGUGGACGUGGAUUUGGGGAUGGCUAUAAUGGGUAGGGAGGAGGACCUGGAGGUGGCAA", "log2 enrichment": 0.22}
{"Strand": "CAAGUCCUGUGCUACACAUCGUAUGUACCGAAUCGGAAAAAGGUUUGGUUUUUGGAAAGUAUUAUGUUACGCCGUUCGGAUCUGCACUUC", "log2 enrichment": -0.782}
{"Strand": "UGGGAGGUGGAUUUUGUUUAUUUUUUUAGCUCAUUUCCAGGGGUGGGAAUUUUUUUUUAAUAUGUGUCAUGAAUAAAGUUGUUUGUGAAA", "log2 enrichment": 0.614}
{"Strand": "UGGGAGGUGGAUUUUGUUUAUUUUUUUAGCUCAUUUCCAGGGGUGGGAAUUUUUUUUUAAUAUGUGUCAUGAAUAAAGUUGUUUUUGGAA", "log2 enrichment": 0.409}
{"data": "Study 3", "target": "CCNA2, cyclin fold, Cln2 fusion (human)", "method": "yeast growth competition, sequencing", "sample": "yeast", "setting": "strong parent motif", "reference": "not given", "direction": "higher = stronger binding", "starting sequence": "CDKN1B docking peptide (human); PSACRNLFGPVDH"}
{"Variant": "S2H", "normalised enrichment score": 3.49}
{"Variant": "H13F", "normalised enrichment score": 4.19}
{"Variant": "F8E", "normalised enrichment score": -0.365}
{"Variant": "F8T", "normalised enrichment score": 0.448}
{"Variant": "P1C", "normalised enrichment score": 2.96}
{"Variant": "P1W", "normalised enrichment score": 3.84}
{"Variant": "N6S", "normalised enrichment score": 3.05}
{"Variant": "P10A", "normalised enrichment score": 3.28}
{"Variant": "L7I", "normalised enrichment score": 1.76}
{"data": "Further values, each from its own experiment"}
{"Molecule": "PhoQ, residues 284 288 289 292 302 303 SSYNSA", "target": "PhoP, residues 12 14 15 18 19 STWGI (Escherichia coli, UniProt P23836)", "assay": "Sort-seq, measured: YFP reporter", "system": "E. coli", "conditions": "PhoQ-PhoP variant library, together with: 10 µM Mg2+", "scale": "reference: high Mg2+ state, higher = stronger signaling", "endpoint": "fold induction", "result": 0.378}
